# Measurements gathered from unrelated publications.
# Every numbered part comes from another study and shows a few of its results, in no order. “And” joins repeats or separate records; there may be more than shown.

# Set 1
# Cell line: mouse MPNST tumor cells
# Technique: high-content nuclear imaging
# Measured: cell number
# Tested at: 10 µM
# Time: 12 h
# Notes: mean of 2 replicates
# Relative to: plate mean
# Direction: higher = more cells
Structure (SMILES),nuclei count
Cc1cc(C(C)(C)C)cc(C)c1CC1=NCCN1,2.07 z-score
COc1cc2nc(N3CCCN(C)CC3)nc(NC3CCN(Cc4ccccc4)CC3)c2cc1OC,-4.8 z-score
CCc1ccc(/C=C2/SC(=S)NC2=O)cc1,2.09 z-score
O=C(COc1ccccc1Cl)Nc1cc(Cl)ccc1C(=O)O,-0.017 z-score
COc1ccc2[nH]c(-c3ccccc3)c(CCNC(C)=O)c2c1,1.78 z-score
O=c1cc(N2CCNCC2)oc2c(-c3ccccc3)cccc12,2.77 z-score
O=C(Oc1cccc(F)c1OC(=O)c1cccc(O)c1)c1cccc(O)c1,-1.26 z-score

# Set 2
# Target: Calcium/calmodulin-dependent protein kinase kinase 1 (CAMKK1, Homo sapiens, UniProt Q8N5S9)
# Chain of UniProt Q8N5S9 (whole entry, looked up): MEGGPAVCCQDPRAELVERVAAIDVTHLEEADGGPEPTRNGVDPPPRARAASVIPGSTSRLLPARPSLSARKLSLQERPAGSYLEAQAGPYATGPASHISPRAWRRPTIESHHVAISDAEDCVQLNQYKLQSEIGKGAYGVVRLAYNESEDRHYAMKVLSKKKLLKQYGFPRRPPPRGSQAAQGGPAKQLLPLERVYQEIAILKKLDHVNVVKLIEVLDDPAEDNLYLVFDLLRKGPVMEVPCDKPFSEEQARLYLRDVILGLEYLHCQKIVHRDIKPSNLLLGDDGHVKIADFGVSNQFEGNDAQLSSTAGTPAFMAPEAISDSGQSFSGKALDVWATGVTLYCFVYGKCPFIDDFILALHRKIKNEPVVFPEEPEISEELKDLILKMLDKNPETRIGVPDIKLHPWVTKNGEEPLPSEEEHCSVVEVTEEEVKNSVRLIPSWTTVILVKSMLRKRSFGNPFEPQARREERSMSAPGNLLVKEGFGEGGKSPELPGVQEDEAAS
# Observed: enzyme activity
# Action: inhibitor
# Tested at: 0.5 µM
# Relative to: control
Structure (SMILES),remaining activity
Cc1nc(-c2ccccc2)c(-c2ccncc2)o1,123%
COc1ccc(C(=O)Nc2sc3c(c2C(N)=O)CCCC3)cc1OC,125%
OCC(O)CCON=C1C(c2c(O)[nH]c3ccccc23)=Nc2ccccc21 (stereo not drawn),26.2%
O=C(O)c1ccc2c3c1cccc3c(=O)n1c3ccccc3nc21,45.8%
COc1ccc(OC)c2c(=S)c3ccccc3[nH]c12,108%
C#Cc1cccc(Nc2ncnc3cc(OCCOC)c(OCCOC)cc23)c1,98.7%
Cc1ccc(Nc2nccc(N(C)c3ccc4c(C)n(C)nc4c3)n2)cc1S(N)(=O)=O,72%
O=C1NC(=O)C(c2cn(CCCO)c3ncccc23)=C1c1cnccn1,107%
CO[C@H]1C[C@@H]2CC[C@@H](C)[C@@](O)(O2)C(=O)C(=O)N2CCCC[C@H]2C(=O)O[C@H]([C@H](C)C[C@@H]2CC[C@@H](O)[C@H](OC)C2)CC(=O)[C@H](C)/C=C(\C)[C@@H](O)[C@@H](OC)C(=O)[C@H](C)C[C@H](C)/C=C/C=C/C=C/1C,118%
COc1ccc(CNC(=O)Nc2ncc([N+](=O)[O-])s2)cc1,119%
CC(C)[C@H](CO)Nc1nc(Nc2cc(N)cc(Cl)c2)c2ncn(C(C)C)c2n1,86.8%
CNC(=O)c1cc(Oc2ccc(NC(=O)Nc3ccc(Cl)c(C(F)(F)F)c3)cc2)ccn1,103%
NCCNc1ncc(C(N)=O)c(Nc2cccc(C(F)(F)F)c2)n1,95.2%
Nc1[nH]nc2nc3ccccc3nc12,112%
Cn1c2ccccc2c2c3c(c4c5ccccc5n(CCC#N)c4c21)CNC3=O,19.3%

# Set 3
# Target: DNA polymerase theta, ATPase domain (POLQ, Homo sapiens, UniProt O75417)
# Chain of UniProt O75417 (whole entry, unmodified, looked up): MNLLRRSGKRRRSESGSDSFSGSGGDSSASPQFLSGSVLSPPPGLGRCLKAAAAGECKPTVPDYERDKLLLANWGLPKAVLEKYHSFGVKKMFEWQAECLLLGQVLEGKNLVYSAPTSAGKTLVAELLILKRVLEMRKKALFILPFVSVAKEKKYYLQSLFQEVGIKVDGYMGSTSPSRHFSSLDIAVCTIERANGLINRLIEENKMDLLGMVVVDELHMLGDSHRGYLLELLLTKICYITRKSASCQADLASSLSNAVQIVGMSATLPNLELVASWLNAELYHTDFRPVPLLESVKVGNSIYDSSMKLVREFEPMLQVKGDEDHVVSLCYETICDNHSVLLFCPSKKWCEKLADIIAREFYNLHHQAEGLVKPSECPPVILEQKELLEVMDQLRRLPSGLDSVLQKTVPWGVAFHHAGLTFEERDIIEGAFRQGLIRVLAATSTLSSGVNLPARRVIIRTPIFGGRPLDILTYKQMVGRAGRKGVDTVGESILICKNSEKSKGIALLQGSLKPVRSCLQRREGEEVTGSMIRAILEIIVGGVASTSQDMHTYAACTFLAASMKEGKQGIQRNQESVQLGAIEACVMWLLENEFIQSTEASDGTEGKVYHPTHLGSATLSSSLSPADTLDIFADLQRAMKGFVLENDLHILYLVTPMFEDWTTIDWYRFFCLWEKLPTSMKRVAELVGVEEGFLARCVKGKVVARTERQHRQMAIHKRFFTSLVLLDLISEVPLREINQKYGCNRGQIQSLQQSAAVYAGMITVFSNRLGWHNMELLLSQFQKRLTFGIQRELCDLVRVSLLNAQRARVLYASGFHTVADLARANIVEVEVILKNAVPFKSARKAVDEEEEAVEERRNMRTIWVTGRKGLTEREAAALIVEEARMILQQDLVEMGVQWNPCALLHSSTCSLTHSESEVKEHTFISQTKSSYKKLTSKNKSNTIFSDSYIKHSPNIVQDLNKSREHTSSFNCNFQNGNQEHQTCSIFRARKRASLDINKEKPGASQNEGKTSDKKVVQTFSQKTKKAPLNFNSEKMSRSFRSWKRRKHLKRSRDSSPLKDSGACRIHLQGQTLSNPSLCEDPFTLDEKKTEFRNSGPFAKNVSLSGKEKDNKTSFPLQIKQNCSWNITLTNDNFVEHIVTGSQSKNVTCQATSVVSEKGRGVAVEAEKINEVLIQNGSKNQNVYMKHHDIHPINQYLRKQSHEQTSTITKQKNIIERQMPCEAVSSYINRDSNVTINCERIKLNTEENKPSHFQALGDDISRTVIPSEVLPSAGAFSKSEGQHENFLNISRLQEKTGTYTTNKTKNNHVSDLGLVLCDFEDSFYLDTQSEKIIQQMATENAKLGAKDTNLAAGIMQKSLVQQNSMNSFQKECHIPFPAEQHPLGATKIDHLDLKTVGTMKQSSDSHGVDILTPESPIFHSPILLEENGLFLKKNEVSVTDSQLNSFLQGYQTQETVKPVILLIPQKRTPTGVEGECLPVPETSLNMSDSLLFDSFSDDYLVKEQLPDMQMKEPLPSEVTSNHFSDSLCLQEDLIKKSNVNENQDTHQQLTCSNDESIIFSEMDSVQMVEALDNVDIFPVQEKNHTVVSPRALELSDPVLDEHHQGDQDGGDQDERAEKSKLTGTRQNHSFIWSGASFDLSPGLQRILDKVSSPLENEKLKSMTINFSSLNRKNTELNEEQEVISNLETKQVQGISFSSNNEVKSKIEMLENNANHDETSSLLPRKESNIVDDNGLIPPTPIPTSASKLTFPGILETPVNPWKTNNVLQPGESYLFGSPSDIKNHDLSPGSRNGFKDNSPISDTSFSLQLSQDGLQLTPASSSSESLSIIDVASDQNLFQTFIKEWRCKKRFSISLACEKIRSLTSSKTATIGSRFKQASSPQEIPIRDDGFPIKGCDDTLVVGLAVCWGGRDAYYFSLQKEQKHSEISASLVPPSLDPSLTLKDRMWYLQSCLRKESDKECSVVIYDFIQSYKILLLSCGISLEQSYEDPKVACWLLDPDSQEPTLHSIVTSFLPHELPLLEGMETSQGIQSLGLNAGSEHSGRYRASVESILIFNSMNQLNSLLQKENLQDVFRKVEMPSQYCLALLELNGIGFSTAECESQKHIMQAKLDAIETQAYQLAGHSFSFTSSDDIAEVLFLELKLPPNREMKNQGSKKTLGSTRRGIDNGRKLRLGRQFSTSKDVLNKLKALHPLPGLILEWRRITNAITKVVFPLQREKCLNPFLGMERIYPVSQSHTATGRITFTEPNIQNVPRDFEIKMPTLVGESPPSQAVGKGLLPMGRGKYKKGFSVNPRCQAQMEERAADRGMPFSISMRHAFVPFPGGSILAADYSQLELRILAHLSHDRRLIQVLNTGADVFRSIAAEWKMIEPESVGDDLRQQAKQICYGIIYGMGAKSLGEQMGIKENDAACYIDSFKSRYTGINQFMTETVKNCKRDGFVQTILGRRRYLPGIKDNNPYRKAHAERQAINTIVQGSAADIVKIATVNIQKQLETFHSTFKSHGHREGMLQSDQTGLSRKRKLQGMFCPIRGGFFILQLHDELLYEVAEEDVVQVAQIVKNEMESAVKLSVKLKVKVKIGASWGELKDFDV
# Observed: enzyme activity
# Action: inhibitor
# Tested at: 77 µM
# Relative to: untreated
SMILES,remaining activity
COc1cc2c(cc1OC)CC(=O)N(CCCN(C)C[C@H]1Cc3cc(OC)c(OC)cc31)CC2,99%
O=c1ccn([C@@H]2O[C@H](COP(=O)(O)OP(=O)(O)O)[C@@H](O)[C@H]2O)c(=O)[nH]1,105%
NC(CO)C(=O)NNCc1ccc(O)c(O)c1O (racemic),94.1%
NC(=O)NO,101% and 99.8%

# Set 4
# Target: Beta-1 adrenergic receptor (ADRB1, Homo sapiens, UniProt P08588)
# Chain of UniProt P08588 (whole entry, looked up): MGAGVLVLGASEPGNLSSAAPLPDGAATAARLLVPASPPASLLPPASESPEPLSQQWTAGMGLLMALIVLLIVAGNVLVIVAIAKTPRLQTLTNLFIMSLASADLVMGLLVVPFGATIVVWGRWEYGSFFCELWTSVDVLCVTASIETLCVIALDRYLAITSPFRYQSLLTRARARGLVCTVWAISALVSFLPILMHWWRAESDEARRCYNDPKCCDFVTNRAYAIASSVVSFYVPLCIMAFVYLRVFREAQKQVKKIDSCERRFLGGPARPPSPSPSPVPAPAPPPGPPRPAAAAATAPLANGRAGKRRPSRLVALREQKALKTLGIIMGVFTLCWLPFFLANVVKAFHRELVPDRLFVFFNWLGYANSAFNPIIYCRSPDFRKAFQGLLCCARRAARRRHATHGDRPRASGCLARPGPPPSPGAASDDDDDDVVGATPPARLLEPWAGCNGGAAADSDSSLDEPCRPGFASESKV
# Action: antagonist
Compound,IC50 [µM]
CCOc1nccn2c(-c3ccc(CNCC(O)CO)cc3)cnc12 (stereo not drawn),≥ 100
Clc1cccc(Nc2cnc3ccc(N4CCOCC4)nn23)c1,≥ 100
O=C(COc1ccccc1)Nc1ccc([C@@H](O)[C@H]2COCC(=O)N2CC2CC2)cc1,≥ 100
CC(=O)Oc1ccc2c(c1)Oc1cc(OC(C)=O)ccc1C21OC(=O)c2ccccc21,≥ 100
